Measured values pooled from the literature.
Numbered parts are unrelated; each lists some results of a single study.

Sample 1
Target: Centromere-binding protein 1, full length, N-terminal tag (CBF1, Saccharomyces cerevisiae, UniProt P17106, residues 1-351)
Chain of UniProt P17106 (whole entry, looked up): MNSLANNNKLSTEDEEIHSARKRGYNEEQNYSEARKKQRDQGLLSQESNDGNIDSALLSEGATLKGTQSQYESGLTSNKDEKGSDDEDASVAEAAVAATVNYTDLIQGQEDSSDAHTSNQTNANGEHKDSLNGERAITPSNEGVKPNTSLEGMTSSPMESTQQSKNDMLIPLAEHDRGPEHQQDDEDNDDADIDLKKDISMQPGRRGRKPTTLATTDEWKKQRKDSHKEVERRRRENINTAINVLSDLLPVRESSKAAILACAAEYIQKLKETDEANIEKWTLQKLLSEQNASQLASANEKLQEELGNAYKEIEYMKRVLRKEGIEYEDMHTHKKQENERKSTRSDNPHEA
Method: protein-binding microarray
Form: double-stranded DNA, one strand shown
Medium: in vitro
Tested at: 0.8 µM
Setting: whole 60-bp probe, no competitor
Direction: higher = stronger binding
Shared flanks, not repeated: … GTCTTGATTCGCTTGACGCTGCTG
| Sequence | fluorescence intensity |
| --- | --- |
| CTACAAAAGGCAGCGCACGCACTATTTCCCTTTTTC | 524 a.u. |
| CTAACGTTTTAACAGCTGATAACCGCCATTTTTTTC | 556 a.u. |
| GAAACAATTCCCTCCCACGTATAAACACATACATAG | 543 a.u. |
| GAAGACATGTTGTTCGTGATGATCTTTCTTCCTTAG | 538 a.u. |
| CTATAAGGTTGTTATCTCGTGGACCACAACGCATTC | 549 a.u. |
| CCTAACTACTATAGACACGTTTCATAGCTTCGTACA | 634 a.u. |
| GAAGTTCATTACAAAAACGTGGTTCTATGGTTCTAG | 588 a.u. |
| GAAGTGGTTTCATGTGACGTGGAGTCATGTAGGTAG | 2360 a.u. |
| TGTACGAAGCTATTTCATGTCACTATAGTAGTTAGG | 542 a.u. |
| GAATCTATTGGTTGGCTGATGTTAGTAATTACTTAG | 537 a.u. |
| CTACGATTGGTTTATCACGTAAGTTTCTTATGATTC | 504 a.u. |
| GAACGGTCCTGCTCTCACGTTCTTCCTTATTGGTAG | 695 a.u. |
| GAATTTCATATATTTAATGTGACGACTCATATTTAG | 532 a.u. |
| CTAAGCACAAACCGTCACATGCCGTTCCGAAATTTC | 1470 a.u. |
| GAAGTTTTTACTAGGCATCAGAACTGTCTCCGATAG | 476 a.u. |
| CTATCGTTGCGTTCAGGCCTGACGGGCGATTCCTTC | 484 a.u. |
| CTATACTATTTGTCTCCCACGTGCTGCATTGTCTTC | 6170 a.u. |
| CTATTCTCAATTCATGTGGCTTCAAACATTTAATTC | 631 a.u. |
| GAAAAATTAAGCGGAGGTGTGATTTGTTATATCTAG | 575 a.u. |

Sample 2
Target: Interferon regulatory factor 3, full length, phosphomimetic (IRF3, Homo sapiens, UniProt Q14653, residues 1-427, S386D/S396D/S398D/S402D/T404D/S405D)
Method: protein-binding microarray
Form: double-stranded DNA, one strand shown
Medium: in vitro
Tested at: 2540 nM top
Setting: 60-bp whole probe
With: salmon DNA 0.4 mg/ml
Relative to: random background probes
Direction: higher = stronger binding
Shared flanks, not repeated: GCCTAGCAC … GTCTTGATTCGCTTGACGCTGCTG
Target sequence (chain): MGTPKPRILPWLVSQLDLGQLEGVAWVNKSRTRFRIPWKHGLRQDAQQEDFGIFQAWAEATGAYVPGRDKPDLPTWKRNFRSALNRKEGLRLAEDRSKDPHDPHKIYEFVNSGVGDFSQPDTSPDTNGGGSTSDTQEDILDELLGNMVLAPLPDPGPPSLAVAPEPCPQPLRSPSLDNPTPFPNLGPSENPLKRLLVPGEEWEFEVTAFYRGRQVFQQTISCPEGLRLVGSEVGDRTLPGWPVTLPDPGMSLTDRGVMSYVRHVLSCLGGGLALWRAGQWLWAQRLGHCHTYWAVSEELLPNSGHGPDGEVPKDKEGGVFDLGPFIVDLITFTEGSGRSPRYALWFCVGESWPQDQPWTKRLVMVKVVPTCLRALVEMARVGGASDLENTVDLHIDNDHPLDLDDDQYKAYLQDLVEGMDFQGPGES
| Sequence | fitted relative affinity [z-score] |
| --- | --- |
| GATGATTTCGGGTATCGAGACGTGCTA | 1.13 |
| TTAGGTTTCCTTCTCCTCTAGTGCTAG | 10.3 |
| GGGCACATCTTAACATATGAGTGCTAG | 0.458 |
| TTAAGTATCCTTATCCTTTAGTGCTAG | 6.38 |
| TAAGGTTTCGACACTGGGTTAGTGCTA | 2.34 |
| ATTCTTTGCTCATTTTTCAGGGTGCTA | 1.62 |
| GACGAACTGGGGACTGGAGGCGTGCTA | -0.535 |
| GACGATTGCAGACTGGAGACGTGCTAG | -0.0303 |
| GACGATTCCAGTTTCGAGGCGTGCTAG | 2.82 |
| GCCGGTATCGGACTGGGGACGTGCTAG | 2.04 |
| GACCATTTCAGACTGGAGACGTGCTAG | 1.96 |
| GACGGTTTCGTGTATCGGGACGTGCTA | 2.99 |
| TTATGTATCGACACTGGGTTAGTGCTA | 0.537 |
| CTGGGCAGGATGAGTTCCAGGTGCTAG | -0.305 |
| TTAGGTTTCGGTTTCGGTTCGTGCTAG | 12 |
| GACGGAATCCTTTTCCTGACGTGCTAG | 4.07 |
| GACGGACCGGGTATCGGGACGTGCTAG | 0.086 |
| TTAGGTTTCGTTATCGGTTAGTGCTAG | 6.47 |
| GTCGGTTTCCTACTGCTGACGTGCTAG | 6.99 |

Sample 3
Target: Histone acetyltransferase KAT6A, winged helix 1, GST fusion (KAT6A, Homo sapiens, UniProt Q92794, residues 1-85)
Method: protein binding microarray
Form: double-stranded DNA, one strand shown
Medium: in vitro
Tested at: not given
Setting: 8-mer, flanks averaged, mean of 2 arrays, mostly near background
Relative to: not given
Direction: higher = stronger binding
Residues (chain): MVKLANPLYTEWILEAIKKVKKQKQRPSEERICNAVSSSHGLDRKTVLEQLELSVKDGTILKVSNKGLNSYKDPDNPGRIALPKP
| Sequence | E-score |
| --- | --- |
| GCGAGCCC | 0.256 |
| CATGAAGC | 0.083 |
| CAAATTTA | -0.209 |
| CGTAGTAA | -0.0375 |
| AAGACAGG | -0.141 |
| GGGAGACC | 0.094 |
| ACGCTTTG | 0.234 |
| AGCAGCAT | -0.1 |
| CGTGAACC | 0.0677 |
| GAATGGAA | -0.129 |
| CGTGGAAC | 0.166 |
| CATGCGAA | 0.0959 |
| CAGGAATG | -0.185 |
| AGCGTGGC | 0.0888 |
| CATGAAAG | -0.197 |
| TGAGCGAA | 0.0444 |
| ATAGGATG | 0.0225 |
| ATTCGGTC | 0.0122 |
| AAGTGGAT | -0.159 |
| ATTATTGG | -0.159 |
| GTCCGCAC | 0.179 |
| CTAAGCCC | 0.0392 |
| CGCCGTTC | 0.353 |
| CTGAAAGA | -0.0595 |
| CCTGCCTA | -0.182 |

Sample 4
Target: PABPC1L2, full length, GST fusion (mouse, UniProt A0ABA7IW68)
Method: RNAcompete
Form: RNA
Medium: in vitro
Tested at: 20 nM
Setting: 7-mer, probes averaged, single round
Relative to: mean of 7-mers
Direction: higher = stronger binding
Residues (chain): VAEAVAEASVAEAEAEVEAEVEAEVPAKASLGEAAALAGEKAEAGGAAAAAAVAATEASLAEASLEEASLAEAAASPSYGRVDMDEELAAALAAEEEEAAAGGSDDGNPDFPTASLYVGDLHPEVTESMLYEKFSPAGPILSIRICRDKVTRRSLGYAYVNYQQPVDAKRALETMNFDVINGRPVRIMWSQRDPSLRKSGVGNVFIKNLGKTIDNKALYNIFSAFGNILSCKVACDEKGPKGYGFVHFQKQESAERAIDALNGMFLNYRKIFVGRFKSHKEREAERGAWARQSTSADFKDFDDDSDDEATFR
| Sequence | 7-mer Z-score |
| --- | --- |
| AAUUCGC | 0.158 |
| GCCGUGG | -0.124 |
| GGCUAAA | 0.717 |
| GGGCUCA | 0.488 |
| GGGGGUU | 0.169 |
| UGAUGCU | -0.15 |
| GUGUCUU | -0.3 |
| UCCAUGA | -0.166 |
| UCAGGUA | -0.0554 |
| UAUGGUA | -0.113 |
| AUAGGGU | 0.0732 |
| AGCGUGC | -0.0826 |
| CUCAAUA | -0.0464 |
| GAGCGCC | -0.284 |
| AGUGGCG | 0.187 |
| AUGAUCC | -0.106 |
| CGAUCAG | -0.0736 |
| GACGCAA | 0.0352 |
| UUUAAUG | 0.182 |
| AUUGCAG | 0.0877 |
| AGACACG | -0.2 |
| CAUACAG | -0.05 |

A few entries again (sample 2):
| Sequence | fitted relative affinity [z-score] |
| --- | --- |
| TTAGGTTTCGGTTTCGGTTCGTGCTAG | 12 |
| GACGAACTGGGGACTGGAGGCGTGCTA | -0.535 |
| GACGATTCCAGTTTCGAGGCGTGCTAG | 2.82 |
| TTATGTATCGACACTGGGTTAGTGCTA | 0.537 |
| GACCATTTCAGACTGGAGACGTGCTAG | 1.96 |
| GACGGTTTCGTGTATCGGGACGTGCTA | 2.99 |
| CTGGGCAGGATGAGTTCCAGGTGCTAG | -0.305 |
